Experimental data from different studies.
Protocols differ between the studies behind these lines. Numbers after ± are the reported error.
Cell line: A549

| Compound | test | conditions | IC50 |
| --- | --- | --- | --- |
| CC1=CC(C)=[N+]2C1=C(CO)c1c(C)cc(C)n1[B-]2(C)C | phototoxicity, resazurin | added: 645 nm light, 9.00 J/cm2 | > 100 µM |
| N#Cc1c(F)c(Cl)c2nc(SCc3ccc4ccccc4c3)nc(N)c2c1F | cell growth or viability, MTT | 96 h | 9.28 µM |
| C=C(CO)[C@@H]1CC[C@]2(C)CC[C@]3(C)[C@H](CC[C@@H]4[C@@]5(C)CCC(=O)C(C)(C)C5CC[C@]43C)C12 (stereo partly shown) | cell growth or viability, SRB | – | 14.3 µM |
| COc1ccc(/N=N/C(=S)N2CCN(C)CC2)cc1 | cell growth or viability, resazurin | 48 h | > 50 µM |
| S=c1n(-c2ccccc2)c2c3ccccc3nc3[n+]2[n]1[Ir-3]12([S]3)([c]3ccc4ccccc4c3-c3sc4ccccc4[n+]31)[c]1ccc3ccccc3c1-c1sc3ccccc3[n+]12 | cell viability, MTT | irradiation 450 nm, 15.5 mW/cm^2, 15 min | 0.069 ± 0.02 µM |
| C=C(CC)C(=O)c1ccc(OCC(=O)NCCNC(=O)COc2ccc(C(=O)C(=C)CC)c(Cl)c2Cl)c(Cl)c1Cl | cell growth or viability, CCK-8 | 72 h | ~1.2 µM |
| COc1cc(N(C)CCN(C)C)c(NC(=O)/C=C/c2ccc3nc(C)ccc3c2)cc1Nc1nccc(-c2cn(C)c3ccccc23)n1 | cell growth or viability, MTT | 72 h | 0.114 µM |
| Nc1cccc[n+]1CCCCC[n+]1ccccc1N | cell growth or viability, MTT | 24 h | 1000 µM |
| Cc1ccc(NC(=O)N/N=C2\CC3(CCN(C)CC3)Oc3ccccc32)cc1 | cell growth or viability, MTT | 48 h | 5.12 µM |
| C=CC(=C)CC[C@]1(C)[C@H](C)C[C@H](O)[C@@]23C(=C[C@H](OC(=O)C(C)C)C[C@@H]12)[C@@H](OC(C)=O)O[C@H]3OC(C)=O | cell growth or viability, SRB | – | 0.66 µM |
| Cc1cc(/C=C/C#N)cc(C)c1Oc1cc(Nc2ccc(C#N)cn2)nc2ccncc12 | – | 48 h | > 120 µM |
| C[C@H]1[C@H](C)CC[C@]2(C)CC[C@]3(C)C(=CC(=O)[C@@H]4[C@@]5(C)CC[C@@H](O)[C@](C)(C(=O)NCCNC(=O)C6CCCCC6)[C@@H]5CC[C@]43C)[C@H]12 | cell growth or viability, MTT | 48 h | 12.8 µM |
| CC1=CC(C)=[N+]2C1=C(CO)c1c(C)cc(C)n1[B-]2(F)F | cell growth or viability, resazurin | dark | > 100 µM |
| COc1cccc(-c2ccc(Nc3ccc(CN(C)C)cc3)c(OC)c2F)c1 | cell growth or viability, ATP luminescence | 72 h | 12.9 µM |
| CC(C)=CCn1c2ccc(Br)c(=O)c-2nc2ccccc21 | cell growth or viability, CCK-8 | 72 h | 0.33 µM |
| Cc1ccc(C2C([N+](=O)[O-])C(Cc3ccc(O)cc3)NC23C(=O)c2cccc4cccc3c24)cc1 (stereo not shown) | cell growth or viability, MTT | 48 h | 35.8 µM |
| CCCC(CCC)C(=O)[O][Pt]1([OH])[O]C(=O)C(=O)[O]1.NC1CCCCC1N | cell growth or viability | – | 60.3 µM |
| OC[C@H]1[C@@H](O)[C@@H](O)CN1CCc1ccccc1 | cell growth or viability, MTS | 72 h | > 200 µM |
| CC(C)c1cccc(C(C)C)c1N=[C](NCc1cccc(N)c1)[AuH][Cl] | cell growth or viability | – | > 100 µM |
| COc1ccc(C2=NN(C3=NC(=O)/C(=C/c4ccc(N(C)C)cc4)S3)C(c3ccc(F)cc3)C2)cc1 (stereo not shown) | cell growth or viability, MTT | – | 78.2 µM |
| COc1c(C)c(OS(=O)(=O)c2ccccc2)c(C)c(O)c1C(=O)/C=C/c1ccccc1 | cell growth or viability, SRB | 72 h | 26.3 µM |
| C#CCOc1ccc(/C=N\NC(=O)c2ccncc2)cc1 | cell growth or viability, MTT | 48 h | 298 µM |
| CCCCCC(=O)NCCNC(=O)[C@]1(C)[C@@H]2CC[C@]3(C)[C@H](C(=O)C=C4[C@@H]5[C@@H](C)[C@H](C)CC[C@]5(C)CC[C@]43C)[C@@]2(C)CC[C@H]1OC(C)=O | cell growth or viability, MTT | 48 h | 19 µM |
| COc1c(O)cc2oc3cc(O)c(CC=C(C)C)c(O)c3c(=O)c2c1CC=C(C)C | cell growth or viability | 48 h | 13.8 µM |
| Cc1c(C)c(C)[c-](C)c1C.Cc1ccnc(-c2[c-]cccc2)c1.[Cl-].[Ir+3] | SRB | 24 h, 72 h recovery | 8.7 ± 0.3 µM |
| CC1=CC(C(F)(F)F)=[O+][Pt-2]([NH3+])([NH3+])[O]1.CC1=CC(C(F)(F)F)=[O+][Pt-2]([NH3+])([NH3+])[O]1.O=S(=O)([O-])[O-] (stereo not shown) | cell growth or viability, MTT | – | 2.2 µM |
| CCCCCCCC(=O)NCCNC(=O)[C@]1(C)[C@@H]2CC[C@]3(C)[C@H](C(=O)C=C4[C@@H]5[C@@H](C)[C@H](C)CC[C@]5(C)CC[C@]43C)[C@@]2(C)CC[C@H]1OC(C)=O | cell growth or viability, MTT | 48 h | 12.2 µM |
| Cc1cc(/C=C/c2ccc(O)c(O)c2)[nH]n1 | cell growth or viability, MTT | 48 h | > 100 µM |

| Compound | test | conditions | IC50 |
| --- | --- | --- | --- |
| COc1c(O)cc2oc3c(Br)c(O)c(CC=C(C)C)c(O)c3c(=O)c2c1CC=C(C)C | cell growth or viability | 48 h | > 40 µM |
| CC(C)=CCC[C@@H](C)[C@H]1C[C@H](O)[C@@]2(C)C3=CC[C@H]4C(C)(C)[C@@H](O)CC[C@]4(C)C3=CC[C@]12C | cell growth or viability, MTT | 72 h | 6.1 µM |
| CN(C)CCO/N=C1/C=C2CCC3C(CC[C@]4(C)/C(=C/c5ccccn5)CCC34)[C@@]2(C)CC1 (stereo partly shown) | cell growth or viability, MTT | 72 h | 82.8 µM |
| C=C1C(=O)[C@@]23CC[C@@H]4C(C)(C)CCC[C@@]4(CO)[C@@H]2[C@@H](O)C[C@@H]1C3 | cell growth or viability, MTT | – | 13 µM |
| Cc1ccc(C(C)C)cc1.[Cl-].[Cl-].[Fe+2].[Ru+2].c1cc[cH-]c1.c1ccc(P(=NCc2ccccn2)(c2ccccc2)[c-]2cccc2)cc1 | cell growth or viability, MTT | 24 h | > 125 µM |
| N#Cc1cccc(-c2ccc(=O)n(Cc3cccc(-c4ncc(OCC5CCN(CCC(=O)Nc6cccc7c6C(=O)N(C6CCC(=O)NC6=O)C7=O)CC5)cn4)c3)n2)c1 (stereo not shown) | cell growth or viability, CCK-8 | 72 h | 1.26 µM |
| Cc1cc(C)c([N+]#[C][Pt-]([Cl])([Cl])=[C](Nc2cccc(CN[C](Nc3c(C(C)C)cccc3C(C)C)=[Au][Cl])c2)Nc2c(C)cc(C)cc2C)c(C)c1 | cell growth or viability | – | > 100 µM |
| [Cl-].[Cl-].[Ru+2].c1ccc(-c2cccc(-c3ccccn3)n2)nc1.c1ccc2nc(-c3ccc4ccccc4n3)ccc2c1 | cell growth or viability | 72 h, dark | 42.5 µM |
| O=C1c2cccc3cccc(c23)C12NC(Cc1ccc(O)cc1)C([N+](=O)[O-])C2c1ccccc1 (stereo not shown) | cell growth or viability, MTT | 48 h | 40 µM |
| COc1ccc(/C=C2\SC(N3N=C(c4ccc(OC)cc4)CC3c3ccc(F)cc3)=NC2=O)cc1 (stereo not shown) | cell growth or viability, MTT | – | 21.7 µM |
| C=CC(=O)Nc1cc(Nc2nccc(-c3c(-c4cccc(OC)c4)n(C)c4ccccc34)n2)c(OC)cc1N(C)CCN(C)C | cell growth or viability, MTT | 72 h | 0.301 µM |
| Cc1ccc(C(C)C)cc1.Oc1ccccc1C=NNC1=Nc2ccccc2-c2[nH]c3ccc(Br)cc3c2C1.[Cl-].[Cl][Os+] | cell growth or viability, MTT | 96 h | 4.6 µM |
| Cl.[Cl][Ru-]1[S+]=C(N2CCCC2)N[N+]1=Cc1ccc(N(c2ccc(-c3ccsc3)cc2)c2ccc(-c3ccsc3)cc2)cc1.c1ccccc1 | cytotoxicity, MTT | 24 h | 18.9 ± 5.8 µM |
| O=C(Cc1ccccc1)NC(=S)Nc1nccs1 | cell growth or viability, MTT | 48 h | 57.5 µM |
| COC(=O)[C@H](C(C)C)N(C)C(=O)[C@@H]1CCCN1C(=O)[C@H](C)N(C)C(=O)OC(C)(C)C | cell growth or viability, SRB | – | 6 µM |
| [Cl-].[Cl-].[Ru+2].c1ccc(-c2cc(-c3ccccn3)nc(-c3ccccn3)c2)cc1.c1ccc(-c2ccnc3c2ccc2c(-c4ccccc4)ccnc23)cc1 | cell growth or viability | 72 h, dark | 0.48 µM |
| N#Cc1ccc(-c2nc(N)[nH]c2C(=O)c2ccccc2)cc1 | cell growth or viability, SRB | 24 h | 0.314 µM |
| Cc1ccc(S(=O)(=O)c2c(-c3ccccc3)c3c(C)c4ccc(C)cc4n3c3ccccc23)cc1 | cell growth or viability, MTT | 72 h | 13.7 µM |
| COC(=O)CCC(=O)[O][Pt-2]1([OH])([Cl])([Cl])[NH2+]CC[N+]1(C)C | cell growth or viability, MTT | 96 h | 48 µM |
| N#Cc1cccc(-c2ccc(=O)n(Cc3cccc(-c4ncc(OCC5CCN(CCCCCC(=O)Nc6cccc7c6C(=O)N(C6CCC(=O)NC6=O)C7=O)CC5)cn4)c3)n2)c1 (stereo not shown) | cell growth or viability, CCK-8 | 72 h | 1.64 µM |
| CC(C)=CCC1=C([O-])C(=O)c2ccccc2C1=O.CC(C)=CCC1=C([O-])C(=O)c2ccccc2C1=O.[Cu+2].c1ccc(-c2ccccn2)nc1 | cell viability, MTT | 24 h | 33.9 ± 1.6 µM |
| C=C1C2CCC3(CCC4C5(C)CCCC4(CN(CCO)C5)C3C2)C1O (stereo not shown) | cell growth or viability, MTT | – | 13.7 µM |
| COc1ccc(-c2coc3c(CC=C(C)C)c(O)c(CC=C(C)C)c(O)c3c2=O)cc1O | cell growth or viability, MTT | – | 105 µM |
| CC(C)c1cccc(C(C)C)c1[N+]#[C][Pt-]([Cl])([Cl])=[C](Nc1cccc(CN[C](NC(C)(C)C)=[Au][Cl])c1)Nc1c(C(C)C)cccc1C(C)C | cell growth or viability | – | > 100 µM |
| O=C(Nc1ccc(F)cc1)c1ccccc1-n1c(=O)[nH]c2ccccc2c1=O | cell growth or viability, MTT | 24 h | 21 µM |
| Cc1cc(C)c([N+]#[C][Pt-]([Cl])([Cl])=[C](Nc2ccc(CN[C](NC(C)(C)C)=[Au][Cl])cc2)Nc2c(C)cc(C)cc2C)c(C)c1 | cell growth or viability | – | 0.36 µM |
| CCn1cc[n+](CC)c1 | cell growth or viability, crystal violet | 72 h | > 100 µM |
